Assay results pooled from the literature.
Lines come from different studies, so protocols differ. ± marks the error that the study gave.
Cell line: MCF7

`NS(=O)(=O)c1ccc(/N=N/c2ccc(O)c(/C=N/c3cc([N+](=O)[O-])ccc3O)c2)cc1` has a selectivity index of 1.49 (MTT; 48 h; relative to: MCF10A IC50 over MCF7 IC50).
`FC(F)(F)c1cnc2[nH]cc(Cc3ccc(OCc4ccccc4)cc3)c2c1` has an inhibition of 32% (cell growth or viability; 10 µM, 72 h).
With `N=C(N)NCCC[C@H](NC(=O)[C@H](Cc1c[nH]c2ccccc12)NC(=O)[C@H](CCC(N)=O)NC(=O)[C@H](Cc1c[nH]c2ccccc12)NC(=O)[C@H](CCCNC(=N)N)NC(=O)[C@H](Cc1c[nH]c2ccccc12)NC(=O)[C@H](CCC(N)=O)NC(=O)[C@H](Cc1c[nH]c2ccccc12)NC(=O)[C@@H](N)CCCNC(=N)N)C(N)=O` the caspase activation was roughly 80% (flow cytometry; concentration not given, 2 h, intrinsic pathway).
For `C[C@]12CC[C@@H]3c4ccc(OCC(=O)N[C@@H](CCCCNC(=O)CN5CCN(CC(=O)[O-])CCN(CC(=O)[O-])CCN(CC(=O)[O-])CC5)C(=O)O)cc4CC[C@H]3[C@@H]1CCC2=O.[177Lu+3]`, the internalization was 20% (60 min, 37 °C, acid wash pH 5.0; relative to: cell-bound activity).
`Cc1cc(/C=C/c2ccc(O)c(O)c2)[nH]n1`: “GSH/GSSG ratio increase” roughly 7 fold (25 µM, 48 h; relative to: untreated).
Under “relative protein level”, `CC(=NNC(=S)NN=C(C(=NO)c1ccccc1)c1ccccc1)c1ccccc1` is recorded as 0.76 ± 0.07 (Western blot, measured: iNOS; IC50 concentration, 24 h; relative to: untreated).
`CN1CCN(c2ccc(C(=O)/C=C/Nc3ccc(S(N)(=O)=O)cc3)cc2)CC1`: “cells in %G0–G1 phase” 51.4% (PI flow cytometry; IC50 concentration, 24 h).
For `C[n+]1c(/C=C/c2ccc(N(c3ccccc3)c3ccccc3)cc2)cc(/C=C2\Sc3ccccc3N2CCCN2CCCC2)c2ccccc21`, “CTCF mRNA level” read “no effect” (qRT-PCR; concentration not given).
For `CC(=C(c1ccc(Cl)cc1)c1ccc(OCCN2CCOCC2)cc1)c1ccc(Cl)cc1`, the inhibition was 19.3% (cell growth or viability; 10 µM).
For `CCS(=O)(=O)Oc1cc(/C=N/NC(=O)c2nc3ccccc3s2)ccc1OC`, “G2/M phase cells” read 18.3% (concentration not given, 24 h).
With `NS(=O)(=O)c1ccc(/N=N/c2ccc(O)c(/C=N/c3ccccn3)c2)cc1` the selectivity index was 11.5 (MTT; 72 h; relative to: MCF10A IC50 over MCF7 IC50).
With `CCCc1cc(O)nc(SCCOC(=O)[C@]2(C)CCC[C@]3(C)c4ccc(C(C)C)cc4CCC23)n1` (stereo partly drawn) the apoptotic cells was 5.87% (annexin V-FITC/PI flow cytometry; 5 µM, 48 h).
`O=C(CCc1nc2cc(Cl)ccc2[nH]c1=O)Nc1ccc(O)cc1` has a selectivity index of 23.9 (MTT; relative to: WI-38 IC50 over MCF7 IC50).
With `CN1CCC2(CC1)C/C(=N\NC(=O)Nc1ccccc1)c1ccccc1O2` the apoptotic cells was 21.7% (annexin V-FITC/PI; concentration not given, 24 h, Early apoptosis).
For `COc1ccc(-c2noc(NC(=O)c3ccc(F)c(C(F)(F)F)c3)c2C#N)c(OC)c1`, “Hsp90 protein level” read 1.56 ng/mL (ELISA; 10 µM).
Under S6 phosphorylation, `CCC[C@@H]1O[C@@H](Oc2c(-c3ccc(O)cc3)oc3cc(O)cc(O)c3c2=O)[C@H](OC(C)=O)[C@H](OC(C)=O)[C@H]1NC(C)=O` is recorded as “no effect” (inhibitor, immunoblot, measured: phospho-S6; 25 and 50 µM, together with: PMA).
`CC(Cc1ccc(Cl)cc1)=C(c1ccc(Cl)cc1)c1ccc(OCCN2CCCC2)cc1` gave an inhibition of 69% (cell growth or viability; 10 µM).
With `CC(=O)OC[C@H]1O[C@@H](Sc2sc(C(=O)c3ccc(C)cc3)c(N)c2-c2nc3ccccc3s2)[C@H](OC(C)=O)[C@@H](OC(C)=O)[C@H]1OC(C)=O` the growth was 100% (SRB; 10 µM, 48 h; relative to: untreated).
Under “PR mRNA level”, `O=C(O)C=Cc1ccc(C(=C2C3CCCC2CCC3)c2ccc(O)cc2)cc1` is recorded as “inhibited” (antagonist, real-time PCR; 1 µM, together with: 1 nM estradiol).
For `CC(Cc1ccc(Cl)cc1)=C(c1ccc(Cl)cc1)c1ccc(OCCN2CCCCCC2)cc1`, the inhibition was 31.8% (cell growth or viability; 10 µM).
`COc1cccc2c1C(=O)c1c(O)c3c(c(O)c1C2=O)CC(O)(C(=O)CO)CC3OC1CC(NC(=O)CCC2=C(C)C(=O)C=C(C(C)C)C2=O)C(O)C(C)O1` (stereo not drawn) — result for ROS production: “decreased” (10 µM, 4 h; relative to: free doxorubicin).
The TGI of `CCCCCCCCCCCCCCCC(=O)N[C@@H](C(=O)N[C@H](CO)C(=O)N[C@H](C)C(=O)N[C@H](Cc1ccc(O)cc1)C(=O)N[C@H](CC(C)C)C(=O)N[C@@H](C(=O)NCC(=O)N[C@H](CC(N)=O)C(=O)NCC(=O)N[C@H](CC(C)C)C(=O)N[C@H](CCCNC(=N)N)C(=O)N[C@H](CO)C(=O)N[C@H](CC(N)=O)C(=O)N[C@H](CC(N)=O)C(=O)N[C@H](CCCNC(=N)N)C(N)=O)C(C)C)C(C)C` is reported as 0.1 ± 0.005 µM (48 h, 1% FBS).
For `CC(=C(c1ccc(O)cc1)c1ccc(Cl)cc1)c1ccc(Cl)cc1`, the inhibition was no less than 100% (cell growth or viability; 10 µM).
For `COc1ccc(NC(=O)CCc2nc3cc(Cl)ccc3[nH]c2=O)cc1`, “pre-G1 phase cells” read roughly 1.38 fold (flow cytometry; concentration not given; relative to: untreated control).
With `N=C(N)NCCC[C@H](NC(=O)[C@H](Cc1c[nH]c2ccccc12)NC(=O)[C@H](CCC(N)=O)NC(=O)[C@H](Cc1c[nH]c2ccccc12)NC(=O)[C@H](CCCNC(=N)N)NC(=O)[C@H](Cc1c[nH]c2ccccc12)NC(=O)[C@H](CCC(N)=O)NC(=O)[C@@H](N)Cc1c[nH]c2ccccc12)C(N)=O` the selectivity ratio was greater than 1.1 (relative to: fibroblast IC50 over MCF7 IC50).
With `O=C(c1ccc2ccccc2c1)c1cn(-c2ccccc2)nc1C1=Nn2c(Cc3nnc4n3N=C(c3nn(-c5ccccc5)cc3C(=O)c3ccc5ccccc5c3)CS4)nnc2SC1` the mRNA level was 12.6 fold (RT-PCR, measured: caspase-3; IC50, 48 h; relative to: untreated).
`OC(c1cccc(Oc2ccccc2)c1)c1c[nH]c2ncc(C(F)(F)F)cc12` (stereo not drawn) gave an inhibition of 26% (cell growth or viability; 10 µM, 72 h).
The selectivity index of `NS(=O)(=O)c1ccc(/N=N/c2ccc(O)c(/C=N/CCc3c[nH]c4ccccc34)c2)cc1` is reported as 1.15 (MTT; 48 h; relative to: MCF10A IC50 over MCF7 IC50).
`CC(C)(C)c1cc2c(O)c(c1)Cc1cc(C(C)(C)C)cc(c1OCC(=O)Nc1cncc3ccccc13)Cc1cc(C(C)(C)C)cc(c1O)Cc1cc(C(C)(C)C)cc(c1OCC(=O)Nc1cncc3ccccc13)COC2` has an apoptotic cells of 57.7 ± 0.68% (annexin V-FITC/PI flow cytometry; 20 µM, 24 h).
Under “cells in S phase”, `CN(C)c1cccc2c(S(=O)(=O)NCCCCCC(=O)NO)cccc12` is recorded as 12.9% (cell cycle, propidium iodide flow cytometry; 1 µM).
The TGI of `COc1ccc(NC(=O)C2C(=O)C(c3ccccc3)c3ccc4c(c32)C(=O)c2ccccc2C4=O)cc1` (stereo not drawn) is reported as 45.3 µM (cell growth or viability).
`O=C1c2c(O)cc(O)cc2-c2c(-c3ccc(O)cc3)oc3cc(O)cc1c23`: “shared downregulated proteins” 29% (label-free MS proteomics; concentration not given; relative to: tanespimycin downregulated proteins).
`CN(C)c1ccc(/C=C/c2cc(/C=C3\Sc4ccccc4N3CCCN3CCCC3)c3ccccc3[n+]2C)cc1`: “caspase-3 and Bax levels” “increased” (Western blot; concentration not given, 36 h).
For `COC(=O)[C@H](CSSC[C@H](NC(=O)[C@H](Cc1ccccc1)NC(=O)[C@H](Cc1ccccc1)NC(=O)OC(C)(C)C)C(=O)OC)NC(=O)[C@H](Cc1ccccc1)NC(=O)[C@H](Cc1ccccc1)NC(=O)OC(C)(C)C`, protein level read “no effect” (western blot, measured: DNA damage, apoptosis, autophagy proteins; concentration not given).
The apoptotic cells of `COc1cc2c(=O)c(-c3ccc4c(c3)OCO4)coc2c2c1OC(C)(C)C=C2` is reported as 31.3% (annexin V/PI flow cytometry; 5 µM, 48 h).
`CCC(=C(c1ccc(Cl)cc1)c1ccc(OCCN2CCOCC2)cc1)c1ccc(OC)cc1` gave an inhibition of 2.3% (cell growth or viability; 10 µM).
For `O=C1c2ccccc2C(=O)c2c1ccc1c2C(C(=O)Nc2ccccc2Cl)C(=O)C1c1ccccc1` (stereo not drawn), the TGI was 24.6 µM (cell growth or viability).
With `CC1=[N+]2N=C(c3ccccc3)[O][Pd-2]2([Cl])[O+]=C2Oc3ccccc3C=C21` (stereo not drawn) the selectivity index was 3.37 (cytotoxicity, MTT; 48 h; relative to: WI-38 over MCF7 IC50).
`COc1ccc(-c2nnc(-c3cc(-c4ccccc4)n(-c4ccc(S(N)(=O)=O)cc4)n3)o2)cc1` has a necrotic cells of 1.57 fold (Annexin V/PI; concentration not given; relative to: untreated).

Repeated from above:
For `CCS(=O)(=O)Oc1cc(/C=N/NC(=O)c2nc3ccccc3s2)ccc1OC`, “G2/M phase cells” read 18.3% (concentration not given, 24 h).
The TGI of `COc1ccc(NC(=O)C2C(=O)C(c3ccccc3)c3ccc4c(c32)C(=O)c2ccccc2C4=O)cc1` (stereo not drawn) is reported as 45.3 µM (cell growth or viability).
With `O=C(c1ccc2ccccc2c1)c1cn(-c2ccccc2)nc1C1=Nn2c(Cc3nnc4n3N=C(c3nn(-c5ccccc5)cc3C(=O)c3ccc5ccccc5c3)CS4)nnc2SC1` the mRNA level was 12.6 fold (RT-PCR, measured: caspase-3; IC50, 48 h; relative to: untreated).
`CC(Cc1ccc(Cl)cc1)=C(c1ccc(Cl)cc1)c1ccc(OCCN2CCCC2)cc1` gave an inhibition of 69% (cell growth or viability; 10 µM).
